Assay results of several laboratories.
Parts stem from different laboratories: compare values within a part only.
Chain of UniProt P08588 (whole entry, looked up): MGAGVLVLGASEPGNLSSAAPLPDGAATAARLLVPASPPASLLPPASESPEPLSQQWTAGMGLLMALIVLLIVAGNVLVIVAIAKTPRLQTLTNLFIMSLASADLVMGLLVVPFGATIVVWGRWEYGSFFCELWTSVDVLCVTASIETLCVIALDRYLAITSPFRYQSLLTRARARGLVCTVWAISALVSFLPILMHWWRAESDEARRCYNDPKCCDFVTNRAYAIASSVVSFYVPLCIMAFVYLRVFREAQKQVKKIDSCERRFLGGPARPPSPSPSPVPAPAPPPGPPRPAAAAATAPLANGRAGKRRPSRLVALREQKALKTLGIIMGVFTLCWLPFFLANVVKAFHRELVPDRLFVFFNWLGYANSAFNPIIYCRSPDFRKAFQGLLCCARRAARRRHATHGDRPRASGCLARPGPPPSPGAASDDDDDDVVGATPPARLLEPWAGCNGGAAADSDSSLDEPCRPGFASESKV

Block 1
Target: RING finger protein unkempt homolog, zinc fingers 1-6, GST-SBP tag (UNK, Homo sapiens, UniProt Q9C0B0, residues 30-357)
Chain of UniProt Q9C0B0 (30-357, looked up): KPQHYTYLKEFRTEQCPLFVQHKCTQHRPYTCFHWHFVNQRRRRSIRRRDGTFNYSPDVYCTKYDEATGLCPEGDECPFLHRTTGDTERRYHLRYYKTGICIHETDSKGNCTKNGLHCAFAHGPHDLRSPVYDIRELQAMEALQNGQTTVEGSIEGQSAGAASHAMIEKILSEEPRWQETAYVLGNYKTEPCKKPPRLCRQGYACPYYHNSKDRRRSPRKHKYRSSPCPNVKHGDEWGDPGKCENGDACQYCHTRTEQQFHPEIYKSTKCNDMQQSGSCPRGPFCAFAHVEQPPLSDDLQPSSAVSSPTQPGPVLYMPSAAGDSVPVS
Technique: RNA Bind-n-Seq
Form: RNA
Sample: in vitro
Tested at: not given
Setting: RNA with constant flanks, human-mouse chimeric sites, ends assumed
Relative to: input RNA pool
Reading: higher = stronger binding
Shared flanks, not repeated: GGGAGUUCUACAGUCCGACGAUC … CAACAGAGGAUUGAGCAUCA
| Oligonucleotide | bound/input enrichment |
| --- | --- |
| UCCCAAAUCCAGCAGCUAGAAGGAGCCUUGAGACAAACACUCCACACACAGGGAAGGCGAUAACAUUGUAAAUUGGUUUACAUUUUUUCCCCCUGUGGAUUUUUCUAGAGGUCAUAGUGC | 0.387 ratio |
| UUUCUACUGCAGCAAACGAUGCUAAGAAUUAAGGAUCCUAAGAAGUCCCUGGAUUUUUAUACUAGAGUUCUUGGACUGACCCUCCUGCAAAAAUGUGACUUCCCUGCUAUGAAGUUCUCG | 0.351 ratio |
| GAUCAUGAACCACCAUCAGAAAUGAAGGAUGAGACUACCAGACGAGCCAAAACAGCUGCGCUACAGAAAAAGUAAACUAACCUUGCAGAGUUCCUUAAUGAAGAUACAAGUUAAGAGAGC | 0.225 ratio |
| AGAAUCUUGGGACUGUUUUACUUAAUUGGUCAUUGAUAGCUUAACAAACAUGGAGAUGAGAUUAGAAAUCUUGACAUCAACAGGUAUUAAGCAGAAAAAACCCUGGCCACGUGUCUCCUG | 0.148 ratio |
| UUACUUUUGACUCCCUGGGUCAAGUUCCUGUGGGAAUCAUACAGGCAGUGUUUGGACCUUCUUCGAAACAAUUCUAGAGUAGAGCGCCUUUACCAUGAUAUCGCCCAACAAGCUUUCAAA | 0.151 ratio |
| CAGUCCCCGUGUCCCAGGGGACAAUGUUGUGAACAAAAACUCAAAGCGGACCCUCUAUUGUAGUUCUUGAUUCUCGAGUGCCAUUAUUAUUGUUUGUCUUUUUUUUUUUUUUUUUAAAGA | 1.6 ratio |
| CCUGCUCAGAUCACCAUGAAAGUAAUCCAAGGCCUAUAUAGUGGGGUCACCACAGUGGAACUAGAUACUUUGGCUGCUGAGACAGCCGCGACCUUGACCACGAAGCACCCUGACUAUGCC | 0.164 ratio |
| GAAACAUUUAAAUUUAAAGAAGCUGUUGUUCUAGGAAGCACGGACUUUCUAGAAGAUGAUAUAGAGAAAAUUGUAGAAGAACUGGGGAAAGAAUACAAGGGCAACGCCUACCAUCUGAUG | 1.21 ratio |

Block 2
Target: RNA binding protein fox-1 homolog 2, RRM domain, GST-SBP tag (RBFOX2, Homo sapiens, UniProt O43251-10, residues 100-194)
Technique: RNA Bind-n-Seq
Form: RNA
Sample: in vitro
Tested at: 365 nM
Setting: natural RNA segment, single round, ends assumed
Relative to: no-protein control
Reading: higher = stronger binding
Shared flanks, not repeated: GGGAGUUCUACAGUCCGACGAUC … UGGAAUUCUCGGGUGCCAA
Target sequence (chain): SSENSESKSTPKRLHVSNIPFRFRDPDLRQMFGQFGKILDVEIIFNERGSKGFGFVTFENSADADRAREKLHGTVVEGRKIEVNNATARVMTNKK
| Oligonucleotide | RBNS enrichment (R) |
| --- | --- |
| AUCACUUGAGGGGACUAUAAUGCAGUAUUUGCACCCCAAGAUAUUUACCUUAAAGUGGAAUCAGAAUGAGGUUCCCAAGCAAGAACUUGCCACCAAGGCCCCAAAGGAUA | 0.675 |
| GCCCCAUGGACACUUUUUUAAAUCUCCAGGAUGUCUGAAACAAACCAGUAAAAUGUCUAUGACUCUUACAUGUUGUCAUUCUUCUUCUUUUGGCUUUGCUGCUCUGAUGA | 0.599 |
| ACAGGAGUGAGGCCCUCAUGGAGAACCUCUGUUAAGGCAAUGUGGAAGGGGAAGCCCCCACACAGAGACCCCACUGGGACACUGCCUAGUAGAGCUGUCAGAAGAAGGCC | 0.34 |
| AAAAUGUCAGUAGUGCUAAUGCAUUUUGCACUAGAACGCUUCGGGAAAAUAUUCAUGCUUGCCAUCUGUUCAUUUCUAAAUUUAUAUUCAUAAAGUUACAGUUUGAUACA | 0.614 |
| ACUGAUAUGGAAACGUACUUUUGUAUUUCAUGCUCAAGAGGAGUUUUGUUUUUGCUUUUUGUUGUUGUUUUGUUGUUGUUAUUUUGUUUGUUUAACAUGGAGUCUCACUC | 4.22 |
| UUCUGAUAACGCAGAGAUUUUUUGUUUUUUUUUGGUAGCUCAGUAGAAGUGCGUCCUGUUUUCGCCUUACUUUACUCAGAGCUAGUUAGUGCUUCCUUAGUUUCCUAGCA | 2.74 |
| AUUCAGUGGGCAAGUAAAUUAUGGACUGCAAAAUAAUGAUUUUUAUUCAAGAAAGCUUUAAAAGUUUUAUAUCCAGAUAUACAACCACAAUAAAGCAAAAUAACCUACUA | 0.55 |
| UUGUACUUUUUAUUCAAUCUGUAUAGACUAUAAAACUAUUUUUAUUAAAUAAAUAUUUUACAGUAAAUUUUCCCUUUUCACUCAGAAUUAUUUUGAGUUCAUCUUCAAAG | 1.15 |

Block 3
Target: Ras GTPase-activating protein-binding protein 1, RRM domain (G3BP1, Homo sapiens, UniProt Q13283)
Chain of UniProt Q13283 (whole entry, looked up): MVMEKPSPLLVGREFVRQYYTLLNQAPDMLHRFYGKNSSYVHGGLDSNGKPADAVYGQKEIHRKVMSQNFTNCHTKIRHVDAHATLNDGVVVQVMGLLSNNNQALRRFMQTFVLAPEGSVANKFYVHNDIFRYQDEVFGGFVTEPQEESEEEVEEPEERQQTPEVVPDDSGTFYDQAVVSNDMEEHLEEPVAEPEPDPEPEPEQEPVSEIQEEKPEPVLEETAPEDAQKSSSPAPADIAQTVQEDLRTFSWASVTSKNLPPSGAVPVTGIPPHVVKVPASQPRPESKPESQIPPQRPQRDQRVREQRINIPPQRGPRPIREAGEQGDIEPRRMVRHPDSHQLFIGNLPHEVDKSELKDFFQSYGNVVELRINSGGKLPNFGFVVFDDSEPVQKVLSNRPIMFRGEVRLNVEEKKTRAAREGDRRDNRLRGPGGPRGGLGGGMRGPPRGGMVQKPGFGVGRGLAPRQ
Technique: RNA Bind-n-Seq
Form: RNA
Sample: in vitro
Tested at: 1 µM
Setting: whole 134-nt RNA, ends assumed
Together with: 150 mM KCl
Relative to: input library
Reading: higher = stronger binding
Shared flanks, not repeated: GGGAGUUCUACAGUCCGACGAUC … UGGAAUUCUCGGGUGUCAAGG
| Oligonucleotide | log2 enrichment |
| --- | --- |
| GUCCUGUGCUACACAUCGUAUGUACCGAAUCGGGGAAAAAGGGAAAAAGGGAAAAAGGGAAAGUAUUAUGUUACGCCGUUCGGAUCUGCA | 0.122 |
| CCUCAAGUCCUGUGCUACACAUCGUAUGUACCGAAUCGGGGAGGAGGGGAGGGAAAGUAUUAUGUUACGCCGUUCGGAUCUGCACUUCCA | 0.148 |
| UCCUGUGCUACACAUCGUAUGUACCGAAUCGGAAAAAAAGGAAAAAAAGGAAAAAAAGGGAAAGUAUUAUGUUACGCCGUUCGGAUCUGC | 0.0781 |
| UAGGUAAGAAAGUACUCAUUGUCUAUGCACACCAGGAACCCAAGUCUUUCAACGGAUCCUUGAAGAAUGUGGCUGUAGAUGAACUGAGCA | -0.0549 |
| CUGUGCUACACAUCGUAUGUACCGAAUCGGGGCCCCCCCGGCCCCCCCGGCCCCCCCGGGGAAAGUAUUAUGUUACGCCGUUCGGAUCUG | -0.724 |
| UCCUGUGCUACACAUCGUAUGUACCGAAUCAAAUUUUUAAACCCCCCCAAAUUUUUAAAAAAGUAUUAUGUUACGCCGUUCGGAUCUGCA | -0.214 |
| UUUGUGAGACAUGUGAAAGGAGGACAUGGUCACAGUCAUGGACAUGGACACGCUCACAGUCAUACACGUGGAAGUCAUGGACAUGGAAGA | -0.209 |
| CAAGUCCUGUGCUACACAUCGUAUGUACCGAAUCGGGAAAGGGAGGGUUUUUGGGAAAGUAUUAUGUUACGCCGUUCGGAUCUGCACUUC | 0.867 |

Single results of other studies
| Compound | target | action | quantity | result |
| --- | --- | --- | --- | --- |
| COc1ccccc1N1CCN(C(C)C(=O)Nc2ccc(F)cc2)CC1 (stereo not shown) | Beta-1 adrenergic receptor (ADRB1, Homo sapiens, UniProt P08588) | agonist | EC50 | ≥ 100 µM |

Some of these lines once more (block 3):
| Oligonucleotide | log2 enrichment |
| --- | --- |
| GUCCUGUGCUACACAUCGUAUGUACCGAAUCGGGGAAAAAGGGAAAAAGGGAAAAAGGGAAAGUAUUAUGUUACGCCGUUCGGAUCUGCA | 0.122 |
| CCUCAAGUCCUGUGCUACACAUCGUAUGUACCGAAUCGGGGAGGAGGGGAGGGAAAGUAUUAUGUUACGCCGUUCGGAUCUGCACUUCCA | 0.148 |
| UCCUGUGCUACACAUCGUAUGUACCGAAUCGGAAAAAAAGGAAAAAAAGGAAAAAAAGGGAAAGUAUUAUGUUACGCCGUUCGGAUCUGC | 0.0781 |
